Assay results of several laboratories.
Each line is one published result; not all experiments were run side by side. Values joined by “and” are separate records of one study, mostly repeats; a detail may differ. ± gives the spread as reported. In brackets after ≈: the same amount, converted by molar mass.
Organism: Aspergillus fumigatus

| Compound | test | test system | conditions | scale | quantity | result |
| --- | --- | --- | --- | --- | --- | --- |
| O=[N+]([O-])[O-].[Ag+] | broth microdilution, turbidity | ATCC 13073 | 24 h, as nitrate salt |  | MIC | 0.4 mg/L |
| CC(C)(C)Cn1c(N)nc2ccc(-c3[nH]c(C(C)(C)C)nc3-c3ccc(F)cc3)nc21 |  |  | 20 µM | baseline: untreated | metabolic activity | ≥ 80% |
| C#Cc1ccc(O)c(C=NNC(=O)c2ccc(Br)cc2Br)c1 |  | 293 | unit not given, with: voriconazole | lower = more synergy | FICI | 2 |
| CC[C@H](C)C[C@H](C)CCCCCCCCC(=O)N[C@H]1C[C@@H](O)[C@@H](NCCN)NC(=O)[C@@H]2[C@@H](O)CCN2C(=O)[C@H]([C@H](O)CCN)NC(=O)[C@H]([C@H](O)[C@@H](O)c2ccc(O)cc2)NC(=O)[C@@H]2C[C@@H](O)CN2C(=O)[C@H]([C@@H](C)O)NC1=O | broth microdilution | BNCC 122691 |  |  | MIC | 2 mg/L (≈ 1.83 µM) |
| C#Cc1ccc(O)c(C=NNC(=O)c2cc(Br)cc(Br)c2O)c1 |  | 293 | unit not given, with: voriconazole | lower = more synergy | FICI | 2 |
| CC[C@@H](C)[C@H]1O[C@@H](c2c(O)c(-c3ccccc3)cn(OC)c2=O)[C@H](C)C[C@@H]1C | cell growth | ATCC 90906 |  |  | IC50 | > 20 mg/L |
| COC(=O)C1=C(C)NC(C)=C(C(=O)OC(C)(C)CN(C)CCC(c2ccccc2)c2ccccc2)C1c1cccc([N+](=O)[O-])c1 (stereo not drawn) | Alamar blue |  | 1.95 µg/mL, 48 h, with: caspofungin 0.2 µg/mL |  | metabolic activity | 63% and 56.8% |
| C#Cc1cccc(C=NNC(=O)c2ccc(Br)cc2)c1O |  | 293 | unit not given, with: voriconazole | lower = more synergy | FICI | 2 |
| OC(Cn1cncn1)(Cn1cncn1)c1ccc(F)cc1F | broth microdilution |  |  |  | MLC | 16 ± 2 mg/L (≈ 52.2 µM) |

A few entries again:
| Compound | test | test system | conditions | scale | quantity | result |
| --- | --- | --- | --- | --- | --- | --- |
| OC(Cn1cncn1)(Cn1cncn1)c1ccc(F)cc1F | broth microdilution |  |  |  | MLC | 16 ± 2 mg/L (≈ 52.2 µM) |
